Experimental data from different studies.
Numbered parts are unrelated; each lists some results of a single study.
UniProt P42336, sequence (whole entry, unmodified, looked up): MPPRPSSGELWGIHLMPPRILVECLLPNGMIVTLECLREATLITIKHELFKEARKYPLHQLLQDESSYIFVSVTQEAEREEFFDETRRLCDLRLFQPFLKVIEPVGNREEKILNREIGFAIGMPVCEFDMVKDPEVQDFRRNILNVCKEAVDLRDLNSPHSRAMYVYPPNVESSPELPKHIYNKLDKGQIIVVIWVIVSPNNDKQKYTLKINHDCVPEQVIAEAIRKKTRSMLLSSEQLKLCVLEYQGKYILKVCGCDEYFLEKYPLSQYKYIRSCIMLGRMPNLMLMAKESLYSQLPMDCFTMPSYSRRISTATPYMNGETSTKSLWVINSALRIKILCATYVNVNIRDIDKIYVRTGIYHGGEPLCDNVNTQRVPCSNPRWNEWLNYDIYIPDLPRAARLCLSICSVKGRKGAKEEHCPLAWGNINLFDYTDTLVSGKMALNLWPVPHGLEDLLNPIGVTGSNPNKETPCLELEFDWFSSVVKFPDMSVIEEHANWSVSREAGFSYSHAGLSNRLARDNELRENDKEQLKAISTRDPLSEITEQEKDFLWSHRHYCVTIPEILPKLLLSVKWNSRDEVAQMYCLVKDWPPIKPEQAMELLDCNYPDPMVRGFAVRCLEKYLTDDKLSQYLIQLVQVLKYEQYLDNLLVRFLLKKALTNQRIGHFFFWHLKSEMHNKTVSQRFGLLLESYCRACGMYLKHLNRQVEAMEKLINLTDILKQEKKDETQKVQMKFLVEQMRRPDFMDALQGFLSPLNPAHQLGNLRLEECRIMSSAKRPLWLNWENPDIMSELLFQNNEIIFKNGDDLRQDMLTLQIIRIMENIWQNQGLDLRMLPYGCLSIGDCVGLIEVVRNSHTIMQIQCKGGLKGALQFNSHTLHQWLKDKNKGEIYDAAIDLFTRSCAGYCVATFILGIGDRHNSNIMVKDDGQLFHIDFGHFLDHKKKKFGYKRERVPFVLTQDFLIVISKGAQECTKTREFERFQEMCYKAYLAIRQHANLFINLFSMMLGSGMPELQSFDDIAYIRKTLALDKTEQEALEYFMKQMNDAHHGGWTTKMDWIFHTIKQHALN
UniProt P10721, sequence (whole entry, unmodified, looked up): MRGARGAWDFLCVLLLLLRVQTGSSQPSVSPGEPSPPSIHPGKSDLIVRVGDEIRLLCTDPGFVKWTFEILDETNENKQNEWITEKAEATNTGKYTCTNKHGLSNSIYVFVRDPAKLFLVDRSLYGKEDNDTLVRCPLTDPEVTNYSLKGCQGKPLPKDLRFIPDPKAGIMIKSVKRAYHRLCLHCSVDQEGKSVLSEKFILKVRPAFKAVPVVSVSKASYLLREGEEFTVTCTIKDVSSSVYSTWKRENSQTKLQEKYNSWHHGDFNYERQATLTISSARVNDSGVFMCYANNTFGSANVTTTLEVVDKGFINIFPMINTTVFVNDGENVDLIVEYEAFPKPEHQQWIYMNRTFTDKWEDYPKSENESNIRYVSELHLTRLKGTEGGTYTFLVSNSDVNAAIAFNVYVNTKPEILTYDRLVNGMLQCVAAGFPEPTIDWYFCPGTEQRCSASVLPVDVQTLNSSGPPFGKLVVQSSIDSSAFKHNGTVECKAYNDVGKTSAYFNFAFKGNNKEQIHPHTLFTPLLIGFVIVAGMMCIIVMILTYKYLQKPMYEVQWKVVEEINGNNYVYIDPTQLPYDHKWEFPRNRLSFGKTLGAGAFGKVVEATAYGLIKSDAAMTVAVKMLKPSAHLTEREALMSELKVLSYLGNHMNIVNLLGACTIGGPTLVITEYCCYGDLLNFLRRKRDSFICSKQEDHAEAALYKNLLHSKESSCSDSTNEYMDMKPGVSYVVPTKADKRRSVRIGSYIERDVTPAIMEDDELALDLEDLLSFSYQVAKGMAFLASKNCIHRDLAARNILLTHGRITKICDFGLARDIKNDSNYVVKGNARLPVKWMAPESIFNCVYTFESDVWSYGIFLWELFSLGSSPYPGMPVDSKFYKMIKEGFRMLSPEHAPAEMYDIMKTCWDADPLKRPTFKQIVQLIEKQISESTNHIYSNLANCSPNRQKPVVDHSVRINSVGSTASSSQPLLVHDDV
UniProt P21802, sequence (whole entry, looked up): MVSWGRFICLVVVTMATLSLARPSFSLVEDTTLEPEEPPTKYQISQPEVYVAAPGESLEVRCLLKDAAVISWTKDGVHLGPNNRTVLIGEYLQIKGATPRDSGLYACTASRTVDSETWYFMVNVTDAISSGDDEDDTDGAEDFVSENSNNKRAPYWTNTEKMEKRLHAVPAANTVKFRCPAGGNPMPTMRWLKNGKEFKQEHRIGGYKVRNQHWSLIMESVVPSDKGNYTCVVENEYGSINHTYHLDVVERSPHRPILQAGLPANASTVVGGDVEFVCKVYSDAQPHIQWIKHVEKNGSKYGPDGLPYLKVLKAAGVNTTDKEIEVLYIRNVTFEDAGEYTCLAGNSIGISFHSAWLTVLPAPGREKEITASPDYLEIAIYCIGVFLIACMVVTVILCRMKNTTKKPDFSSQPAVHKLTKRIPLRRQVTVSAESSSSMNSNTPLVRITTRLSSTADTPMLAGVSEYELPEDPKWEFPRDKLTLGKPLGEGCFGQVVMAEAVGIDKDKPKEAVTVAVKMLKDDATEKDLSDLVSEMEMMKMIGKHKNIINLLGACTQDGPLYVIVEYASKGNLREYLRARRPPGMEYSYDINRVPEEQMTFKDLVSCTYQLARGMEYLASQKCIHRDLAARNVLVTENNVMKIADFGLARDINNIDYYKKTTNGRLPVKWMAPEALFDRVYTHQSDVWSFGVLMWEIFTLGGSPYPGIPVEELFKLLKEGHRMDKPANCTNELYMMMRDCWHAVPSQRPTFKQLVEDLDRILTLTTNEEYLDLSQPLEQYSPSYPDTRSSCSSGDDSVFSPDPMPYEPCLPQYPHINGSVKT
UniProt P51813, sequence (whole entry, looked up): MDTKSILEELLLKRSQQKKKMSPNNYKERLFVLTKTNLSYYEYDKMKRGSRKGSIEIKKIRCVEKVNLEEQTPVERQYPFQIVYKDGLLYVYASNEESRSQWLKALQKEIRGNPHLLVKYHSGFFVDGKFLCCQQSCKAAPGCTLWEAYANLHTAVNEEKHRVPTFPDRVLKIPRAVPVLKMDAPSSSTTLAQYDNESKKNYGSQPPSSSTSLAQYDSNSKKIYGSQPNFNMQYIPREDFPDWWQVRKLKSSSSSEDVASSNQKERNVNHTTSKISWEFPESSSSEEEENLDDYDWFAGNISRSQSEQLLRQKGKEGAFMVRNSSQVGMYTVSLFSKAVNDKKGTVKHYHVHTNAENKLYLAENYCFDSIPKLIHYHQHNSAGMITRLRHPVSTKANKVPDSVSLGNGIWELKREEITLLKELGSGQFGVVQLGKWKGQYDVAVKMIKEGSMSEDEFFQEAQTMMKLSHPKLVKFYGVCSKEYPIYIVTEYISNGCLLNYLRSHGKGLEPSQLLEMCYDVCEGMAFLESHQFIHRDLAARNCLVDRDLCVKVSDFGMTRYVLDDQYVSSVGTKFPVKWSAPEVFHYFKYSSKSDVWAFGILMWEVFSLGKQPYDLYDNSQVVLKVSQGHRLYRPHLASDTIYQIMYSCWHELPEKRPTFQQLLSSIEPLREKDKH
UniProt Q9H4B4, sequence (whole entry, looked up): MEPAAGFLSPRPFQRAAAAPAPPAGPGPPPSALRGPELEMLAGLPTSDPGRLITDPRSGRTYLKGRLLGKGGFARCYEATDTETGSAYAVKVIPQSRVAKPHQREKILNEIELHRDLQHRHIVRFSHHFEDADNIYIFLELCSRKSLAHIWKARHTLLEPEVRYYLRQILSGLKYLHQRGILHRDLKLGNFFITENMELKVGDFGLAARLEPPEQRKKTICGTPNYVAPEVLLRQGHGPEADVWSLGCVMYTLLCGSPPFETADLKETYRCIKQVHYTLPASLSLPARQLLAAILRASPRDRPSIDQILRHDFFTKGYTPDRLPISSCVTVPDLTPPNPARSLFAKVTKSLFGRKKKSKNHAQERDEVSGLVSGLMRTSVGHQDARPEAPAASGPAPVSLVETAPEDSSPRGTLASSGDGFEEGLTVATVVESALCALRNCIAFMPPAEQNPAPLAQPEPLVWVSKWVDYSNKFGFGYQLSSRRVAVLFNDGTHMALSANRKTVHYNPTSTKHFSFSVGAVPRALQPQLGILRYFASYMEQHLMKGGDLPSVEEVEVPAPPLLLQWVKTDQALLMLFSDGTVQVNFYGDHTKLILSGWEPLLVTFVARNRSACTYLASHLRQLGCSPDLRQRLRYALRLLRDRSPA
UniProt Q6P2M8, sequence (whole entry, looked up): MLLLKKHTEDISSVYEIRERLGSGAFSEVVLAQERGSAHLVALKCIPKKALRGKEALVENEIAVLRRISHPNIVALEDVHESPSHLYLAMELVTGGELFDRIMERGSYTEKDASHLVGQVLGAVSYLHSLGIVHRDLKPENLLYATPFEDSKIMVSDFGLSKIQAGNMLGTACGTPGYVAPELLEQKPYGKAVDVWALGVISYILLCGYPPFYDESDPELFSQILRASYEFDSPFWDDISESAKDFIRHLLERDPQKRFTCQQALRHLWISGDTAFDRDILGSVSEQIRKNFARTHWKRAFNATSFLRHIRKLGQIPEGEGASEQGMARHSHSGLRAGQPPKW

Series 1 — mode: inhibitor; tested at: 10 µM; baseline: control
Target: Diamine acetyltransferase 1 (Homo sapiens, UniProt P21673)
Construct (P21673 1-171): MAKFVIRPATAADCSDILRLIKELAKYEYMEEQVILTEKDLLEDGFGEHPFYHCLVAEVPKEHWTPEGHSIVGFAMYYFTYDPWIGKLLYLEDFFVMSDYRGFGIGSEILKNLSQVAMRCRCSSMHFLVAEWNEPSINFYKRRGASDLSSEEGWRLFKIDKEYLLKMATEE
| SMILES | remaining activity [%] |
| --- | --- |
| O=C1CCCCCCCCCCCCCC1 | 108 |
| COc1ccc(-c2cc(=O)c3c(O)c(OC)c(OC)c(OC)c3o2)cc1 | 104 |
| C[C@]12CC[C@@H]3c4ccc(O)cc4CC[C@H]3[C@@H]1CCC2=O | 107 |
| O=c1cc(-c2ccc(O)cc2)oc2cc(O)ccc12 | 89.9 |
| CCCCCCCCCCCCCCO | 106 |
| CC1(C)CC[C@]2(C(=O)O)[C@H](O)C[C@]3(C)C(=CC[C@@H]4[C@@]5(C)C[C@H](O)[C@H](O)C(CO)(CO)[C@@H]5CC[C@]43C)[C@@H]2C1 | 110 |
| CCCCCCCCCCCCCCCC(=O)OC | 101 |
| CC(=O)c1ccc(C)cc1 | 89.8 |
| CCOC(=O)C(C)=O | 101 |
| C[C@H]1[C@H](C)CC[C@]2(C(=O)O)CC[C@]3(C)C(=CC[C@@H]4[C@@]5(C)CC[C@@H](O)C(C)(C)[C@@H]5CC[C@]43C)[C@H]12 | 112 |

Series 2 — read-out: enzyme activity; mode: inhibitor; tested at: 10 µM
Target: Calcium/calmodulin-dependent protein kinase type II subunit alpha (CAMK2A, Homo sapiens, UniProt Q9UQM7)
UniProt Q9UQM7, sequence (whole entry, looked up): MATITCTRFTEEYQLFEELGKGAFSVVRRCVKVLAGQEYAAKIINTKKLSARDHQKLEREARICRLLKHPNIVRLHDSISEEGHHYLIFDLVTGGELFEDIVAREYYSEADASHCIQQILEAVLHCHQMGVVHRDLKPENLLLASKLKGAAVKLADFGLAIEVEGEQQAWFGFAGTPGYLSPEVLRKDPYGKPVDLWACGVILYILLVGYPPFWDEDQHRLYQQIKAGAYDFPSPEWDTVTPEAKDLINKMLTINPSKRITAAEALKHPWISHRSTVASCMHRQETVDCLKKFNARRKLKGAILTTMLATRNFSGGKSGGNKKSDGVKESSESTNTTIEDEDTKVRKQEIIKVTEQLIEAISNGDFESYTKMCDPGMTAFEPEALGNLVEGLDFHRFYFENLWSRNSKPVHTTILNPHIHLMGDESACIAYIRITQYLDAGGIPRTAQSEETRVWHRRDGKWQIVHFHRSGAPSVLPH
| Compound | inhibition [%] |
| --- | --- |
| C=C(C)[C@@H]1CC[C@]2(C(=O)O)CC[C@]3(C)[C@H](CC[C@@H]4[C@@]5(C)CCC(=O)C(C)(C)[C@@H]5CC[C@]43C)[C@@H]12 | -31 |
| O=C(/C=C/c1ccc(O)c(O)c1)c1ccc(O)cc1O | 24 |
| C[C@@H]1C[C@H]2[C@@H]3CCC4=CC(=O)C=C[C@]4(C)[C@@]3(F)[C@@H](O)C[C@]2(C)[C@@]1(O)C(=O)CO | -1 |
| C[N+]1(C)CCC[C@H]1C(=O)[O-] | 40 |
| Nc1nc2c(c(=O)[nH]1)N=C(CNc1ccc(C(=O)N[C@@H](CCC(=O)O)C(=O)O)cc1)CN2 | -15 |
| C/C(=C/C(=O)O)C(=O)O | -6 |
| C1CCC(C(CC2CCCCN2)C2CCCCC2)CC1 (stereo not drawn) | -7 |
| CCCCCCCCCC(C)=O | 6 |
| C=C1[C@H](O)C[C@H]2[C@@H](/C=C(\C)C(=O)[C@@]3(O)C[C@H](C)[C@H](O)[C@@H]3[C@H]1O)C2(C)C | -7 |
| CCCCCCCCCC(=O)O | -10 |

Series 3 — method: competition with immobilised ligand; tested at: 1 µM
SMILES: Cc1nc(Cc2cccc(C(F)(F)F)c2)sc1-c1ccc(C(N)=O)nc1
| target | test | remaining binding [%] |
| --- | --- | --- |
| CLK4 (Homo sapiens, UniProt Q9HAZ1) | cell-free assay | 83 |
| CDC42BPA (Homo sapiens, UniProt Q5VT25) | cell-free assay | 81 |
| TIE1 (Homo sapiens, UniProt P35590) | binding | 28 |
| SGK3 (Homo sapiens, UniProt Q96BR1) | cell-free assay | 100 |
| PIK3CA (Homo sapiens, UniProt P42336, H1047Y) | cell-free assay | 100 |
| CSNK1G2 (Homo sapiens, UniProt P78368) | cell-free assay | 82 |
| FGFR2 (Homo sapiens, UniProt P21802) | cell-free assay | 100 |
| PIK3CA (Homo sapiens, UniProt P42336, E545K) | cell-free assay | 77 |
| PNCK (Homo sapiens, UniProt Q6P2M8) | cell-free assay | 100 |
| CDK9 (Homo sapiens, UniProt P50750) | cell-free assay | 100 |
| BMX (Homo sapiens, UniProt P51813) | cell-free assay | 59 |
| NTRK2 (Homo sapiens, UniProt Q16620) | cell-free assay | 84 |
| TAOK1 (Homo sapiens, UniProt Q7L7X3) | cell-free assay | 81 |
| BMPR1A (Homo sapiens, UniProt P36894) | binding | 76 |
| MAP3K5 (Homo sapiens, UniProt Q99683) | cell-free assay | 100 |
| CSNK1G1 (Homo sapiens, UniProt Q9HCP0) | cell-free assay | 97 |
| Tyrosine-protein kinase ABL1, non-phosphorylated (ABL1, Homo sapiens, UniProt P00519, H396P) | cell-free assay | 87 |
| PLK3 (Homo sapiens, UniProt Q9H4B4) | cell-free assay | 94 |
| NEK11 (Homo sapiens, UniProt Q8NG66) | cell-free assay | 100 |
| KIT (Homo sapiens, UniProt P10721) | cell-free assay | 95 |
| EPHB1 (Homo sapiens, UniProt P54762) | cell-free assay | 100 |
| DAPK2 (Homo sapiens, UniProt Q9UIK4) | cell-free assay | 89 |
| IGF1R (Homo sapiens, UniProt P08069) | cell-free assay | 100 |
| KIT (Homo sapiens, UniProt P10721, T670I/V559D) | cell-free assay | 91 |
| DAPK1 (Homo sapiens, UniProt P53355) | cell-free assay | 100 |

Series 4 — organism: Sarcocystis neurona; read-out: parasite growth; tested at: 10 µM
| Compound | inhibition [%] |
| --- | --- |
| C[C@H]1C[C@@H]2[C@H]([C@@H](O)C[C@@]3(C)[C@H]2CC[C@]3(O)C(=O)CO)[C@@]2(C)C=CC(=O)C=C12 | -20.3 |
| C[C@H]1C[C@H]2[C@@H]3CCC4=CC(=O)C=C[C@]4(C)[C@@]3(F)[C@@H](O)C[C@]2(C)[C@@]1(O)C(=O)CO | -37.4 |
| CC(=O)[C@H]1CC[C@H]2[C@@H]3CCC4=CC(=O)CC[C@]4(C)[C@H]3CC[C@]12C | 8.4 |
| CCC1=C[C@@H]2CN(C1)Cc1c([nH]c3ccccc13)[C@@](C(=O)OC)(c1cc3c(cc1OC)N(C)[C@H]1[C@@](O)(C(=O)OC)[C@H](OC(C)=O)[C@]4(CC)C=CCN5CC[C@]31[C@@H]54)C2.O=C(O)C(O)C(O)C(=O)O.O=C(O)C(O)C(O)C(=O)O | 11.3 |
| CC(C)(O)c1ccccc1CC[C@@H](SCC1(CC(=O)O)CC1)c1cccc(/C=C/c2ccc3ccc(Cl)cc3n2)c1 | -29.7 |
| Cl.Nc1nc2ccc(OC(F)(F)F)cc2s1 | -260 |
| C[C@H]1[C@H](OC(=O)CCC(=O)O)O[C@@H]2O[C@@]3(C)CC[C@H]4[C@H](C)CC[C@@H]1[C@@]24OO3 | 84.2 |
| C#C[C@]1(O)CC[C@H]2[C@@H]3CCc4cc(O)ccc4[C@H]3CC[C@@]21C | -46.8 |
| CC(C)NCC(O)COc1ccc(CC(N)=O)cc1 (stereo not drawn) | 28 |
| COc1cc([C@@H]2c3cc4c(cc3[C@H](O)[C@H]3COC(=O)[C@H]23)OCO4)cc(OC)c1OC | 31 |
| CC(C)Cc1ccc(C(C)C(=O)O)cc1 (stereo not drawn) | -23.7 |
| O=C1c2cccc3c2[C@H](CCC3)CN1[C@@H]1CN2CCC1CC2 | 2.2 |

For quick reference, copied from above (series 2):
| Compound | inhibition [%] |
| --- | --- |
| CCCCCCCCCC(C)=O | 6 |
| C=C(C)[C@@H]1CC[C@]2(C(=O)O)CC[C@]3(C)[C@H](CC[C@@H]4[C@@]5(C)CCC(=O)C(C)(C)[C@@H]5CC[C@]43C)[C@@H]12 | -31 |
| C[N+]1(C)CCC[C@H]1C(=O)[O-] | 40 |
| CCCCCCCCCC(=O)O | -10 |
| O=C(/C=C/c1ccc(O)c(O)c1)c1ccc(O)cc1O | 24 |
| C=C1[C@H](O)C[C@H]2[C@@H](/C=C(\C)C(=O)[C@@]3(O)C[C@H](C)[C@H](O)[C@@H]3[C@H]1O)C2(C)C | -7 |
| C1CCC(C(CC2CCCCN2)C2CCCCC2)CC1 (stereo not drawn) | -7 |
| Nc1nc2c(c(=O)[nH]1)N=C(CNc1ccc(C(=O)N[C@@H](CCC(=O)O)C(=O)O)cc1)CN2 | -15 |
